Assay results of several laboratories.
A part holds a random share of what one study measured.
Sequence of UniProt Q02750 (whole entry, looked up): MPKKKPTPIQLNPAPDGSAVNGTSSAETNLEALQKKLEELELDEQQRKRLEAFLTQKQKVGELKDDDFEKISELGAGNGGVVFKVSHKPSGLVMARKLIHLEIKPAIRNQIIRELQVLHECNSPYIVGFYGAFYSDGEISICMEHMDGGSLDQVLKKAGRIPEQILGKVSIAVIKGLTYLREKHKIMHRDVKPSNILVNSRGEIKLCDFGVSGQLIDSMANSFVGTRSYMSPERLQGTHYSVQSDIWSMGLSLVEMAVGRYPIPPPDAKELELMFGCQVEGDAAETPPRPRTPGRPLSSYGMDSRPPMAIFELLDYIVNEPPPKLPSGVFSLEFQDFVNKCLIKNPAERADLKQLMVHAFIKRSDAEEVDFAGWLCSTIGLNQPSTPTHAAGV
Sequence of UniProt Q7KZI7 (whole entry, looked up): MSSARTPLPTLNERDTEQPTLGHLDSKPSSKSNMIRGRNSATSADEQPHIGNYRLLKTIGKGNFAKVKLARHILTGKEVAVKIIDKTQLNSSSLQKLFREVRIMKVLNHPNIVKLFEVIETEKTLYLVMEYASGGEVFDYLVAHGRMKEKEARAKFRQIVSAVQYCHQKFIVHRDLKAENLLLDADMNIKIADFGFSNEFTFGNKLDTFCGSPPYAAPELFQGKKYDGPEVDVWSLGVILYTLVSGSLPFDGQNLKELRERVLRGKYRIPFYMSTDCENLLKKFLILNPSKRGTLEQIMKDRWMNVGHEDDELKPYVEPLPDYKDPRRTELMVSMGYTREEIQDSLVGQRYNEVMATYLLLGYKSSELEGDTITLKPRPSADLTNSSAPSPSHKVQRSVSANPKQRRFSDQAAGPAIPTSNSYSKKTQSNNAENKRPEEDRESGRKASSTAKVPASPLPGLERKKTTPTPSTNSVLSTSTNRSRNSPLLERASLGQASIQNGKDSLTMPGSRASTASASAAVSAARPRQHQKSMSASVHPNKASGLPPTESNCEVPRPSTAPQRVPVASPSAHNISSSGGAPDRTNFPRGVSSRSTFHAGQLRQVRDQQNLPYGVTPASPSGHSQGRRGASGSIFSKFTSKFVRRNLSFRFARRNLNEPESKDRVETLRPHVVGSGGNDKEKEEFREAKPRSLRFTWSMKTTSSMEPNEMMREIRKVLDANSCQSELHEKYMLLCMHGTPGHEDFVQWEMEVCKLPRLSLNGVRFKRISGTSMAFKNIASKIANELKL
Sequence of UniProt P35968 (whole entry, looked up): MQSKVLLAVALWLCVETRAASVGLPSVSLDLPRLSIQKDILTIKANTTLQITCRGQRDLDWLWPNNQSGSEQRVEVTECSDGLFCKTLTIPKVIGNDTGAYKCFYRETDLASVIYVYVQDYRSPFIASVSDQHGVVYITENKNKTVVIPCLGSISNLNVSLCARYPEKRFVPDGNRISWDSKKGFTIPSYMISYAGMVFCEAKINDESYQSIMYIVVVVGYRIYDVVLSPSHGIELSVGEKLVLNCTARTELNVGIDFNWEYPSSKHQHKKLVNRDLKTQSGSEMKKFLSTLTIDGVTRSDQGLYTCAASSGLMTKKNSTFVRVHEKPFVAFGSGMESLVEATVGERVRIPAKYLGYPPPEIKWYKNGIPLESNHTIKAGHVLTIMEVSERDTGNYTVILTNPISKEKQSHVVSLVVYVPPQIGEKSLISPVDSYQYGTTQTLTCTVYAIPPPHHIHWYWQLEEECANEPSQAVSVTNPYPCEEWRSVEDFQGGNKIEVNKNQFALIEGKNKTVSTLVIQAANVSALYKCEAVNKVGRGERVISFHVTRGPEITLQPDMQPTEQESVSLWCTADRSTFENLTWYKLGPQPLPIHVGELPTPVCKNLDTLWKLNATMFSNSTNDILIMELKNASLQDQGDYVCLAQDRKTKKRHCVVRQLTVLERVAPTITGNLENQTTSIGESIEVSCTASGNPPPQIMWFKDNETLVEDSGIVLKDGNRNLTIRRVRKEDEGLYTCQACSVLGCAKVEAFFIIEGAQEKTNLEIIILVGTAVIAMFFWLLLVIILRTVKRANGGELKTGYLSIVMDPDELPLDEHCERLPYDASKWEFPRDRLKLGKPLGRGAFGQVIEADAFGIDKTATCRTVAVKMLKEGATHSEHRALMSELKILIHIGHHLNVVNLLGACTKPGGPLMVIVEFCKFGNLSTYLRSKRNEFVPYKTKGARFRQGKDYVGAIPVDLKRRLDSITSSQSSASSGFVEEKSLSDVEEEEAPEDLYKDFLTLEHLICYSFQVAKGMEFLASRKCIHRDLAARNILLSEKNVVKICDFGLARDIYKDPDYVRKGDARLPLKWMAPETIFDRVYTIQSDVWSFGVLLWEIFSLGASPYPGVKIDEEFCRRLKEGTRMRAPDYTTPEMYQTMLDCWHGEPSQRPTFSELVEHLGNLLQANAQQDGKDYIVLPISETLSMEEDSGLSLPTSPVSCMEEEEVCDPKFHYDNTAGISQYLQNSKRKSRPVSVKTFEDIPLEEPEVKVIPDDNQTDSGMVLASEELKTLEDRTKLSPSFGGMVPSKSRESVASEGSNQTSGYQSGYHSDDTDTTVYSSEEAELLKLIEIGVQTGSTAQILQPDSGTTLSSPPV
Sequence of UniProt P28482 (whole entry, looked up): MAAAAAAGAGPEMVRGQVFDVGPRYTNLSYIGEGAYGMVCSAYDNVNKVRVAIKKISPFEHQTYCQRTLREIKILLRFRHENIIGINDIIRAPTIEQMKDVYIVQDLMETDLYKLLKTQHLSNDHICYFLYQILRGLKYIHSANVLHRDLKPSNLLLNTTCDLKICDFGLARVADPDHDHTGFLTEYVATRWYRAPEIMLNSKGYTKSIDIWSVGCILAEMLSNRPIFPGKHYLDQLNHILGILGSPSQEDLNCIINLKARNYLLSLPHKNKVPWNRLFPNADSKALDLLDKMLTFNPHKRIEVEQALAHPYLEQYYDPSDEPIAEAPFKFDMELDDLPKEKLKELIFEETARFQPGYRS
Sequence of UniProt Q8N4C8 (whole entry, looked up): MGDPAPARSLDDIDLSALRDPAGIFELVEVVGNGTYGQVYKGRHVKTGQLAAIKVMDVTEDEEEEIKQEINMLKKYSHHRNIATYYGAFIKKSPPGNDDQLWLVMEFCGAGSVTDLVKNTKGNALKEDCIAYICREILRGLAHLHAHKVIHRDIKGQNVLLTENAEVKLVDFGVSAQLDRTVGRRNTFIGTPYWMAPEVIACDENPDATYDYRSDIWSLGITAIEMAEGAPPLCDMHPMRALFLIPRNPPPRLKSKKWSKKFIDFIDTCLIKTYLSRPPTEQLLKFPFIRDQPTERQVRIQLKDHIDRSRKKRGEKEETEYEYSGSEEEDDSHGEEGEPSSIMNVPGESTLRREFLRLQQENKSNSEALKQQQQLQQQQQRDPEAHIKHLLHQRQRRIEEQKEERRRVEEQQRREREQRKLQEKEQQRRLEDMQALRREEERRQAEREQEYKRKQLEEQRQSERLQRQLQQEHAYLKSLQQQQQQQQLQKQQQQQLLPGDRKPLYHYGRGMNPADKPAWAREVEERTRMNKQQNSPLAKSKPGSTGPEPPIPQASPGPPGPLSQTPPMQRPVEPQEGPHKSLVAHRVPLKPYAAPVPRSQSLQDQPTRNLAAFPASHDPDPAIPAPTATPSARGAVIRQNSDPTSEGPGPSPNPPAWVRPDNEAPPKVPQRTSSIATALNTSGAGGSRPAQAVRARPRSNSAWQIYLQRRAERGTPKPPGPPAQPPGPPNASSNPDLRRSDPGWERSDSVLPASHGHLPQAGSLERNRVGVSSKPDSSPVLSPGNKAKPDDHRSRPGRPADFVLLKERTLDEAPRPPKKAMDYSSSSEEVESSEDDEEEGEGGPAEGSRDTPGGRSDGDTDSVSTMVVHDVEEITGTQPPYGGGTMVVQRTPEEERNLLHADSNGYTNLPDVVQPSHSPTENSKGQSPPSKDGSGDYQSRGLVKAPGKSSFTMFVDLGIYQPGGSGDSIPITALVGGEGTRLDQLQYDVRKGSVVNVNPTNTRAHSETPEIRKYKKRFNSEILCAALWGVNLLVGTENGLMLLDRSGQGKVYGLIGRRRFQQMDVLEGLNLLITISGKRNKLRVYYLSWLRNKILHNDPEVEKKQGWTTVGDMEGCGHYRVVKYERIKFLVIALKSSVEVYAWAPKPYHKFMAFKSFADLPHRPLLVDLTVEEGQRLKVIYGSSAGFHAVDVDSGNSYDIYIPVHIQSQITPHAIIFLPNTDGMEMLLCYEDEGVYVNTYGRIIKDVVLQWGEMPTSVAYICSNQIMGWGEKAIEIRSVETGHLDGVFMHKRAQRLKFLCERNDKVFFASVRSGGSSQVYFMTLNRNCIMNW
Sequence of UniProt Q13237 (whole entry, looked up): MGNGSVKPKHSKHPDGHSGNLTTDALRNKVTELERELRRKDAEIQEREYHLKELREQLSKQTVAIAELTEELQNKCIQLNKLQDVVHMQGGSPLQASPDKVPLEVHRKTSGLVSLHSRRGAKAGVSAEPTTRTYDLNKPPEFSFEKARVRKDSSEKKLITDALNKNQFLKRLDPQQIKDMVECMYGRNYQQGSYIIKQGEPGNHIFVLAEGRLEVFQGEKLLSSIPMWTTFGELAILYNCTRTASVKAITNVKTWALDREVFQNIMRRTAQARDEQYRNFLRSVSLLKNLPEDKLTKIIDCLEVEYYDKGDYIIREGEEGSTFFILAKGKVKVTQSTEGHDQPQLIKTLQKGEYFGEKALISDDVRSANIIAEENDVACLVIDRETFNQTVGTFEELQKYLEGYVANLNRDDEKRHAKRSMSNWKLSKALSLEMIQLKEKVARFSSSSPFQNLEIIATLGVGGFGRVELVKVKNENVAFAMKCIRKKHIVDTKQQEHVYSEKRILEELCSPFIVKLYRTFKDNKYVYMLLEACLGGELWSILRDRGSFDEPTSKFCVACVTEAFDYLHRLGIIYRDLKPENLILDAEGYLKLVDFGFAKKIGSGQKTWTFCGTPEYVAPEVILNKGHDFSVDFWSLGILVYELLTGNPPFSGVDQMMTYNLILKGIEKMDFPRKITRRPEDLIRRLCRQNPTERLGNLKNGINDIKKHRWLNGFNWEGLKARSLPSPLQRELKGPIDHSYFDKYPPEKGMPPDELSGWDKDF

Sample 1
Target: His6 tag
Method: AlphaScreen counter screen
Concentration: concentration not given
Compound | inhibition [%]
NC(=O)COc1ccc2cc(-c3nc4ccccc4s3)c(=O)oc2c1 | 9.15
Ic1cccc(CSc2nnc(-c3ccncc3)o2)c1 | -2.3
Cc1ccc(-c2csc3nc[nH]c(=O)c23)cc1 | 7.05
CO[C@@H](C(=O)N1Cc2n[nH]c(NC(=O)c3ccc(N4CCN(C)CC4)cc3)c2C1)c1ccccc1 | -5.5
COc1ccc(C(=O)c2sc(Nc3cccc(C(F)(F)F)c3)nc2N)cc1 | 5.6
Cn1c(C(C#N)=Cc2ccncc2)nc2ccccc21 | 1.05
CCOC(=O)c1cnc2cc(OCCOC(C)C)c(OCCOC(C)C)cc2c1O | 9.95
CC(=O)Nc1ccc(NC(=O)CSc2ccc3nnc(-c4cccc(F)c4)n3n2)cc1 | 0.5
O=C1NC(=O)C(=Cc2ccc(-c3cc(Cl)ccc3Cl)o2)S1 | -10.1

Sample 2
Cell line: mouse MPNST tumor cells
Method: high-content nuclear imaging
Refers to: cell number
Concentration: 10 µM
Time: 12 h
Setting: mean of 2 replicates
Reference: plate mean
Reading: higher = more cells
Structure (SMILES) | nuclei count
Nc1ncnc2c1ncn2C1OC(COP(=O)(O)O)C(O)C1O (stereo not shown) | 0.0011 z-score
O=C(COc1cccc2c(=O)[nH]ccc12)c1ccccc1 | 3.07 z-score
O=C(CCCCC(=O)Nc1c(I)cc(I)c(C(=O)O)c1I)Nc1c(I)cc(I)c(C(=O)O)c1I | -0.175 z-score
Nc1nnc(Sc2ncc([N+](=O)[O-])s2)s1 | -0.808 z-score
CS(=O)(=O)N(Cc1ccco1)C[C@@H](O)Cn1c2ccccc2c2ccccc21 | 2.08 z-score
Cc1nc2c(O)cccc2c(=O)[nH]1 | 1 z-score
CCc1cc(-c2n[nH]c(C)c2-c2ccc3c(c2)OCCO3)c(O)cc1O | 3.44 z-score
CC(C)c1nc(N(C)S(C)(=O)=O)nc(-c2ccc(F)cc2)c1/C=C/[C@@H](O)C[C@@H](O)CC(=O)O | -1.18 z-score
NC(=O)c1cn(C2OC(CO)C(O)C2O)c2ncnc(N)c2c1=O (stereo not shown) | -3.27 z-score

Sample 3
SMILES: CN(C)C[C@H]1CCn2c(c(C3=C(c4cn(C)c5ccccc45)C(=O)NC3=O)c3ccccc32)C1
Observed: enzyme activity
Mode: inhibitor
Concentration: 0.5 µM
Reference: control
target | remaining activity
MET (Homo sapiens, UniProt P08581) | 96.2%
CDC42BPB (Homo sapiens, UniProt Q9Y5S2) | 103%
Cyclin-dependent kinase 1, with cyclin A (CDK1, Homo sapiens, UniProt P06493) | 67.8%
KDR (Homo sapiens, UniProt P35968) | 101%
TLK2 (Homo sapiens, UniProt Q86UE8) | 88.4%
DDR2 (Homo sapiens, UniProt Q16832) | 96%
CLK4 (Homo sapiens, UniProt Q9HAZ1) | 111%
NEK3 (Homo sapiens, UniProt P51956) | 99.4%
MAP2K1 (Homo sapiens, UniProt Q02750) | 98.8%
TXK (Homo sapiens, UniProt P42681) | 103%
MINK1 (Homo sapiens, UniProt Q8N4C8) | 97.8%
PRKG2 (Homo sapiens, UniProt Q13237) | 90.7%
Myosin-IIIb (MYO3B, Homo sapiens, UniProt Q8WXR4) | 87.9%
MAPK1 (Homo sapiens, UniProt P28482) | 101%
CLK3 (Homo sapiens, UniProt P49761) | 94.7%
ROCK1 (Homo sapiens, UniProt Q13464) | 106%
GRK4 (Homo sapiens, UniProt P32298) | 76.4%
MARK2 (Homo sapiens, UniProt Q7KZI7) | 94.9%

Sample 4
Cell line: sample D normal colon organoid
Method: CellTiter-Glo
Concentration: 0.1 µM
Setting: mean of replicates
Reference: DMSO
SMILES | viability [%]
O=C(O)[C@H]1[C@H](Cn2nnc3ccccc3c2=O)CC[C@@H]1C(=O)c1ccc(OCCC2CCOCC2)cc1 | 112
Cc1cc(Nc2nccc(C)n2)cc(-c2cnc([C@@]3(O)CC[C@H](C(=O)O)C(C)(C)C3)s2)c1 | 102
CNC(=O)c1ccc(Nc2ncc(C(F)(F)F)c(NCc3nccnc3N(C)S(C)(=O)=O)n2)cc1 | 112
O=C(NCc1ncc(C(F)(F)F)cc1Cl)c1ccc2c(c1)C1(CCS(=O)(=O)CC1)[C@H](C1CC1)N2S(=O)(=O)c1ccc(F)cc1 | 109
O=C(N[C@H]1CCCCC/C=C\C2C[C@@]2(C(=O)O)NC(=O)[C@@H]2C[C@@H](Oc3ccncc3)CN2C1=O)OC1CCCC1 (stereo partly shown) | 102
O=C(c1ccc(F)cc1)N1CC(COc2ccc(Br)cc2)(C(=O)O)C1 | 103
CCCCN(CCCC)C(=O)CN1C[C@H](c2cc(OC)c3c(c2)OCO3)[C@@H](C(=O)O)[C@@H]1CC(C)(C)CCC | 105
O=S(=O)(NC1CCC(c2cc(F)ccc2F)(S(=O)(=O)c2ccc(Cl)cc2)CC1)C(F)(F)F (stereo not shown) | 101
O=C(Nc1ccc(Oc2ccc(F)cc2)cc1)N1CCc2ncccc2[C@H]1c1ccc(F)cc1 | 104
COc1ccc2cc(OCC3(C(=O)O)CN(C(=O)c4ccc(F)cc4)C3)ccc2c1 | 107
CC(C)(C)OC(=O)N1CCCC1CNC1CCC(c2cc(F)ccc2F)(S(=O)(=O)c2ccc(Cl)cc2)CC1 (stereo not shown) | 88.6
CCCOc1ccc([C@@H]2[C@@H](C(=O)O)[C@H](c3ccc4c(c3)OCO4)CN2CC(=O)Nc2c(CC)cccc2CC)cc1 | 92.8
COc1cccc(CNC(=O)c2nc3scc(COCc4ccc(C(=O)O)cc4)c3c(=O)[nH]2)c1 | 85.9
